Published values gathered from unrelated publications.
Compare with care: the assays were run in different laboratories. “And” joins repeats or separate records; there may be more than shown. pEC50: −log10 of the molar value. Converted amounts (≈) assume the structure as drawn.

SMILES | tested on | test | system | setting | how to read | quantity | value
Cn1cc(Nc2nccc(-c3ccc4c(c3)CN(C3COC3)CC[C@H]4NC(=O)c3cn(C(C)(C)C)nn3)n2)cn1 | – | measured: Colorectal Cancer Metastasis Signaling | splenic B cells, mouse | in vivo, 30 mg/kg, IgD-activated B cells | baseline: vehicle, positive = activation | pathway activation z-score | 2.75
COc1cc(C(=O)NS(=O)(=O)c2ccccc2C)ccc1Cc1cn(C)c2ccc(NC(=O)OC3CCCC3)cc12 | native VRAC | ion current, inhibitor, whole-cell patch clamp | wild-type HCT cells | 100 µM, pH 7.4, extracellular pH | – | inhibition | 91.9% and 98.6% and 93.4% and 91.7% and 87.3%
N#Cc1ccc2c(-c3ccncc3)c(-c3ccc(F)cc3)nn2c1 | orf19.4144 kinase Candida albicans | MIB/MS competition binding | Candida albicans cell lysate | 1 µM | baseline: DMSO, lower = stronger binding | log2 fold change | -0.0452
NC(=O)c1cnc2[nH]ccc2c1N[C@@H]1[C@@H]2CC3C[C@H]1C[C@@](O)(C3)C2 | – | CD8+ CD28+ naive T cells, flow cytometry | Japanese humans, peripheral blood | 200 mg single dose | baseline: baseline | percent change | 0.15%
O=C(O)CNC(=O)Cc1ccccc1 | – | – | ventricular cardiomyocytes, C57BL/6 mouse | dose not given, 0.372 s | – | sarcomere length | 1.72 µm
CN[C@H](CC(C)C)C(=O)N[C@H]1C(=O)N[C@@H](CC(N)=O)C(=O)N[C@H]2C(=O)N[C@H]3C(=O)N[C@H](C(=O)N[C@H](C(=O)O)c4cc(O)cc(O)c4-c4cc3ccc4O)[C@H](O)c3ccc(c(Cl)c3)Oc3cc2cc(c3O[C@@H]2O[C@H](CO)[C@@H](O)[C@H](O)[C@H]2O[C@H]2C[C@](C)(N)[C@H](O)[C@H](C)O2)Oc2ccc(cc2Cl)[C@H]1O | Staphylococcus epidermidis | – | methicillin-resistant, 10 isolates | pH 5.5 | – | MIC50 | 1 µg/mL (≈ 0.69 µM)
COc1cnc2cccc(N3CCc4c(cc(Cn5ccnc5C)cc4-c4cn(C)nc4C(F)(F)F)C3=O)c2c1 | CA46 | cell growth, inhibitor | – | 120 h | – | pEC50 | 5.49
Cc1n[nH]c2ccc(-c3cc(OC[C@@H](N)Cc4ccccc4)cnc3-c3ccoc3)cc12 | orf19.4144 kinase Candida albicans | MIB/MS competition binding | Candida albicans cell lysate | 1 µM | baseline: DMSO, lower = stronger binding | log2 fold change | -0.112
Cc1cnc(NC2CCOCC2)nc1-n1cnc(C(=O)NC(CN)c2cc(F)cc(Cl)c2)c1 (stereo not shown) | MINO | flow cytometry | – | 1 µM, 72 h | – | G1 phase cells | 47%
CC(C)NCC(O)c1ccc(O)c(O)c1 (stereo not shown) | – | – | ventricular cardiomyocytes, C57BL/6 mouse | dose not given, 0.052 s | – | sarcomere length | 1.72 µm
C=C[C@]1(C)C[C@@H](OC(=O)CSCCN(CC)CC)[C@]2(C)[C@H](C)CC[C@]3(CCC(=O)[C@H]32)[C@@H](C)[C@@H]1O | Mycoplasma gallisepticum | – | infected chickens | oral, 40 mg/kg, score scale 0 to 4 | direction not given | air sac lesion score | 2
Oc1ccccc1-c1n[nH]cc1-c1ccnc2ccccc12 | CKA2 (Candida albicans) | kinase binding, MIB/MS competition | Candida albicans lysate | 1 µM | baseline: DMSO | log2 fold change | 0.06
Cn1cc(-c2ccc(-c3cncc(Cl)c3N3CCC4(CCNC4=O)CC3)cc2)cn1 | COLO 205 | gene expression, microarray, measured: SLC2A5 (GLUT5) mRNA | – | concentration not given, 6 h | baseline: untreated cells | log2 fold change | 1.8
C[C@H](Oc1ccc(Br)cc1-c1ccon1)C(=O)O | – | muscle velocity recovery cycles | human, tibialis anterior muscle | 200 mg once daily, multiple doses, multiple ascending dose | baseline: placebo | relative refractory period | -0.084 ms
CCn1cc(-c2cc(Cn3ccoc3=N)cc3c2CCN([C@@H](C)c2cc(OC)ccn2)C3=O)c(C(F)(F)F)n1 | CA46 | cell growth, inhibitor | – | 120 h | – | pEC50 | 6.22
CC(=O)NC[C@H]1CN(c2ccc(N3CCOCC3)c(F)c2)C(=O)O1 | Staphylococcus aureus | – | MRSA, 10 isolates | serum 25% | – | MIC50 | 1 µg/mL (≈ 2.96 µM)
